Experimental data pooled from the literature.
A part holds a random share of what one study measured. Changes are numbered by the printed parent chain.

Block 1 — target: XBP1, bZIP domain (human); method: DHFR protein complementation; sample: yeast; reference: wild-type JUN-FOS pair; direction: higher = stronger binding
Notes: single substitutions, most at no-binding floor
Starting sequence: JUN, bZIP domain (human); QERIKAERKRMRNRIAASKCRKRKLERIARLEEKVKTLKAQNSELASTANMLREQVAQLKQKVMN; partner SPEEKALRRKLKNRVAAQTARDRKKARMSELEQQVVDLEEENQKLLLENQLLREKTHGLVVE
With `I28N` the binding fitness was -1.49 natural log.
`I28V` has a binding fitness of -1.05 natural log.
For `T48C`, the binding fitness was -1.15 natural log.
For `V35Y`, the binding fitness was -1.35 natural log.
The binding fitness of `T48H` is reported as -0.947 natural log.
With `N42Q` the binding fitness was -1.25 natural log.
With `Q55A` the binding fitness was -0.645 natural log.
`E33N` gave a binding fitness of -1.2 natural log.
The binding fitness of `N42S` is reported as -1.5 natural log.
`A46P` gave a binding fitness of -1.38 natural log.
`L38G` has a binding fitness of -1.45 natural log.
The binding fitness of `S47Q` is reported as -0.484 natural log.
`Q58P` gave a binding fitness of -1.31 natural log.
`K34A` gave a binding fitness of -1.27 natural log.
The binding fitness of `V35E` is reported as -1.4 natural log.
With `L38F` the binding fitness was -1.44 natural log.
The binding fitness of `V35I` is reported as -0.527 natural log.
The binding fitness of `A29T` is reported as -0.957 natural log.

Block 2 — method: protein binding microarray; form: double-stranded DNA, one strand shown; sample: in vitro; tested at: not given; reference: not given; direction: higher = stronger binding
Target: Histone acetyltransferase KAT6A, both winged helices, GST fusion (KAT6A, Homo sapiens, UniProt Q92794, residues 1-181)
Notes: 8-mer, flanks averaged, mean of 2 arrays, mostly near background
Construct (chain): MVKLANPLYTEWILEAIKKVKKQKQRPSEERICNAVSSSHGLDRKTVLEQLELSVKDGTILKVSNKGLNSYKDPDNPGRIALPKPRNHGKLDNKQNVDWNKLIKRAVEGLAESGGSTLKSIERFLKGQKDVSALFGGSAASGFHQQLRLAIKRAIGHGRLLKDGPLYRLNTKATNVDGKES
`AGAACCCA` has an E-score of -0.306.
With `AACGTTAT` the E-score was -0.0149.
The E-score of `ATCAGACC` is reported as 0.00545.
`AAGATAGT` gave an E-score of -0.123.
For `CGGTAAAC`, the E-score was 0.172.
`TCATGCCA` has an E-score of -0.15.
For `AGAGTAGC`, the E-score was -0.21.
The E-score of `CTGGCCAG` is reported as -0.163.
`AACGACAG` has an E-score of -0.0868.
For `AAATATAC`, the E-score was -0.206.
`AACCTAAC` gave an E-score of 0.0268.
`AGATGGGG` gave an E-score of -0.248.
The E-score of `GATATCTA` is reported as -0.0644.
`CCTTCTGC` gave an E-score of -0.0446.
For `CCTGCTGA`, the E-score was -0.15.
With `ACTACATG` the E-score was 0.0302.
`GCGCTGAA` gave an E-score of 0.269.
`AGGGACAT` gave an E-score of -0.0122.
For `AACCCGTG`, the E-score was 0.287.
`AGGATCTG` gave an E-score of -0.114.
For `GGCGATAC`, the E-score was 0.153.
`ATGGTTTC` gave an E-score of -0.0291.
`AACGGACC` has an E-score of 0.124.
With `CAGTACCG` the E-score was 0.203.
`CTTGAGTC` has an E-score of -0.109.

Block 3 — target: CCND2, cyclin fold, Cln2 fusion (human); method: yeast growth competition, sequencing; sample: yeast; notes: weak parent motif; reference: not given; direction: higher = stronger binding
Starting sequence: CDC6 docking peptide (human); TLKGRRLVFDNQL
`R5Q`: “normalised enrichment score” 0.0962.
`R5V` — result for “normalised enrichment score”: 0.362.
`D10I` — result for “normalised enrichment score”: 0.422.
`L2E` — result for “normalised enrichment score”: -0.0524.
For `L7T`, “normalised enrichment score” read -0.251.
`L2P` — result for “normalised enrichment score”: 0.403.
Under “normalised enrichment score”, `D10K` is recorded as 0.0305.
For `T1K`, “normalised enrichment score” read 0.342.
Under “normalised enrichment score”, `F9R` is recorded as 0.183.
Under “normalised enrichment score”, `Q12N` is recorded as 0.42.
`L2F`: “normalised enrichment score” -0.0208.
For `V8I`, “normalised enrichment score” read 0.101.
`L7F` — result for “normalised enrichment score”: -0.132.
`Q12E` — result for “normalised enrichment score”: -0.141.
Under “normalised enrichment score”, `V8N` is recorded as 0.288.
Under “normalised enrichment score”, `R5K F9L` is recorded as 0.238.
Under “normalised enrichment score”, `L13T` is recorded as -0.294.
`R5S`: “normalised enrichment score” -0.389.
For `N11P`, “normalised enrichment score” read -0.0228.
`K3A`: “normalised enrichment score” 0.0553.
Under “normalised enrichment score”, `D10F` is recorded as 0.221.
For `T1F`, “normalised enrichment score” read -0.354.
For `G4W`, “normalised enrichment score” read 0.074.
`K3Q`: “normalised enrichment score” 0.432.
`L13Q`: “normalised enrichment score” 0.349.

Block 4 — method: RNA Bind-n-Seq; form: RNA; sample: in vitro; tested at: 365 nM; reference: no-protein control; direction: higher = stronger binding
Target: RNA binding protein fox-1 homolog 2, RRM domain, GST-SBP tag (RBFOX2, Homo sapiens, UniProt O43251-10, residues 100-194)
Notes: natural RNA segment, single round, ends assumed
Shared flanks, not repeated: GGGAGUUCUACAGUCCGACGAUC … UGGAAUUCUCGGGUGCCAA
Target sequence (chain): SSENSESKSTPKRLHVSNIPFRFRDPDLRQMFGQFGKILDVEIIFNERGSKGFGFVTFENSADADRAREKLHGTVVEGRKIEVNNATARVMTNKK
For `AGGCAUCUUGACAUCUUGGCAACUGCCUAGUUAAUGCCAGUGGCCUGUACCAUAUUAUGGAAAACUGUUAACUGCUUAAUUGGGUAAUUUUCAAAGAAAGUAAUGUUGUU`, “RBNS enrichment (R)” read 0.392.
`UCAGGUAGCUCUAGGAGCACCAUCCUGCCCUAGCAGAGCCCAGGCCUUGCCCUCAUGAAGCAUCAUUGAAAUAGCAGGAGCAUGUUGAUUUCUUGGUUAGGUUGCAUUAU` — result for “RBNS enrichment (R)”: 9.29.
For `UCAUCUCACGGACCCUCCGUUCUGCAUUAAGCCCCAGGUUCUCUUCUGGCUUUGAAAGGGCCCGAGUGCUCCCAGUGUAGCUUCGUCACAUCGUCACGAGCCCCUGUGGU`, “RBNS enrichment (R)” read 0.471.
For `CCUCUCUGCUCCCCUGCCUAGUGGGGUGGUAGUGGCUACCUCUCAGCCCCAAUAGUCCCUGCUCCUCUUAGAAUCUUCACCAAGUGGCAGGCCACCUCUGGGCAGGACCA`, “RBNS enrichment (R)” read 0.331.
`ACACUACAUAGAAAGAGGCCCUAUAAACUCAAAAAGUCAUUGGGAAACUUAAAGUCUAUUCUACUUUGCAAGAGGAGAAAUGUGUUUUAUGAACGAUAGAUCACAUCAGA`: “RBNS enrichment (R)” 0.326.
`CACUGUUAUCUUGCCCUGUGUCUCAAUCCUGGUUGUCUAAGUUGGGACACCUGAGUCUCUUCCUCUUGUUCCUUCCACUAUGAGGCUCUGAGCCUCUCUGUGCCUUGGGC`: “RBNS enrichment (R)” 0.307.
For `UGGGCCUUGUGGGGCAAAUAUUGGGUCCCCAGGCUGGAAAGAUGGACAGAGGCCCAAUGGGUGAAGGCUUUGAAGAGCACACAGAAGCCCCUGGCCCCCCACGAGAGCUG`, “RBNS enrichment (R)” read 0.455.
`UACACAGCCCUCUUUCCGUUGUCCCUGGAAUGAUACUGGCCAGAAGCUGGAGAAUAAACAGGUACUGUGAUUGCUGGAAUAUUUCUGCAUAUACCUGAAGGUUAACACUC` — result for “RBNS enrichment (R)”: 0.458.
`UGUAGCGGCCUGUUGUGCAUGCCACCAUGCUGCUGGCCCGGGGGGAUUUGCUCUGAGUCUCCGGUGCAUCAUUUAAUCUGUUAGGUUCUAGUGUUCCGUCUUGUUUUGUG` — result for “RBNS enrichment (R)”: 2.01.
`UGCUACCACUUCGCAUUUCAUCUGUGAGGCAUUUCAUCUUUUAGACAUGUCUUCAUGUCCAGCUACUUGUUUCACCAUGGCAGACCUCCCUGAGCCUUCUUCCUGCCCUG` — result for “RBNS enrichment (R)”: 0.425.
`ACAUGCUUAUAAAAGACUUUUAAUGAAAUGUUGCCUUUUUAAAAUAAUUAUACUUGCACAUGAAAAUAAAAUAUAAAGUCAAUAAUAGUCCUUGUAGCCCAAUGGGAAUU` — result for “RBNS enrichment (R)”: 0.933.
`UGAAGGGGUCCGGUGCAUUUUAUAUUCUCUUUACAAAGGGCCUCUCUUCCACAGUUAACCAGGUCUCCACCAGGGCUUUCUUUCCAUGUGUUUUUCUUCUUGUUGUUUUA` — result for “RBNS enrichment (R)”: 0.92.

Block 5 — method: RNA Bind-n-Seq; form: RNA; sample: in vitro; tested at: not given; reference: input RNA pool; direction: higher = stronger binding
Target: RING finger protein unkempt homolog, zinc fingers 1-6, GST-SBP tag (UNK, Homo sapiens, UniProt Q9C0B0, residues 30-357)
Notes: RNA with constant flanks, human and mouse sites, ends assumed
Shared flanks, not repeated: GGGAGUUCUACAGUCCGACGAUC … CAACAGAGGAUUGAGCAUCA
Construct (chain): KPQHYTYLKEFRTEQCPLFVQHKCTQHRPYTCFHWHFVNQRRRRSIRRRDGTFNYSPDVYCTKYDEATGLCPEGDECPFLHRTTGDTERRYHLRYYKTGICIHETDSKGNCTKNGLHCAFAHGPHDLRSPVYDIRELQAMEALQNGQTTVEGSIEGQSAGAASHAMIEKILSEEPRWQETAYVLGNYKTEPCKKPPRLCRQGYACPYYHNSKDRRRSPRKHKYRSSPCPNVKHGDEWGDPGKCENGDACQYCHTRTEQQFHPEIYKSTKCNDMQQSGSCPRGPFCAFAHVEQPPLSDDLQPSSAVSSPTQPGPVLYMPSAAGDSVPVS
`GAUUGCUGGCGAGGAGGAGGAGUUCAUGUAGUGUUUGAGUGAAGCUUGAGUCACCAUGAGUAGUAGUUUAGGAAAAGAAAAAGACUCUAAAGAGAAAGACCCCAAAGUACCGUCUGCCAA` gave a bound/input enrichment of 2.17 ratio.
With `AAUUCCCAGAUAAGGCUUUUGCUGAGAGAUGGAAUGAGAAUGUUCACUGUCUCUCUGAAGAUUCAACUGUGCUUGAAGUCCUACAGAAACAUUUCAGUGUCAACAAAAACUUGCAGUCAU` the bound/input enrichment was 0.113 ratio.
`UCAUGGAACUUAUGUGUCAAAACAAAGGAACGGGCAGACUGUCCAUCCCAAGCCAGUUCAAUUAGAUGUAAAUUCAUACUGUUUUAAUUUUUUAUGCAAUCUGAUGAGUAGAUGGGCUCA` has a bound/input enrichment of 4.1 ratio.
`CCGAAGCCUUUCUCUCAAAUCUAGUAGUUAACAAGACCAUCUUUGCUAAAGUAGACAGAUUAGCAGGAAUUAUCAACUUCCAGAGACCCAAGGAUCCAAAUAAUUUAUUAAAUGACUGGU` has a bound/input enrichment of 2.61 ratio.
The bound/input enrichment of `UUGUGGUGCCAGAGAAAAGUAGCCAGAGCGGCGCAGUGGCGGCCGCGUUCUGUGGUUUUCCGCUAUUCCCCCAGACCCGCACCUUCUCGGCCUCUUUGCGGAGAAUCGUGACCAAGAUGU` is reported as 0.235 ratio.
For `GUUCGGAGUUUUGCUGUUCGGUGCUUAGAAAAAUAUUUAACAGAUGACAAACUUUCUCAGUACCUCAUUCAACUUGUACAGGUCUUAAAAUAUGAACAGUAUUUGGAUAACCUGCUUGUG`, the bound/input enrichment was 2.55 ratio.
`GCGAGAGGCGGCGCCGCUCCCAAGAUGUCGCAGACGGCCAUGUCCGAAACCUACGAUUUUUUGUUUAAGUUCUUGGUUAUUGGAAAUGCAGGAACUGGCAAAUCUUGCUUACUUCAUCAG` has a bound/input enrichment of 0.0748 ratio.
`UUUUUUCUUUUUUUCUUUUCUUUUCUUUUUCUUUUUUUUGAAGACUAAUGCAGGAAAGCGUUUUUAAAAAGCCCCUUUCUGUUUGUGAGAGAGUAACAAUUAAAAAAAAUAUUAUGGAGG` gave a bound/input enrichment of 0.409 ratio.
`GGUGCCAACCUGAAUGGAAUCAUCUACUUACUGGGGGGUGAGGAGAAUGAUCUAGACUUCUUUACCAAACCUUCCCGACUGAUCCAGUGCUUUGACACAGAAACUGACAAGUGCCACGUG` has a bound/input enrichment of 0.103 ratio.
`UAAUAUAUUUUUCCUACUUGUGGGAAAAGUAUUAUAAGUUUGGUUAAAUUGUCAUGUUUAUAGUUUUUCCAAGUACAUUUGUAACUACAGCAGGCCUUCUUCGUACUGCUGCUGUUGGAC` gave a bound/input enrichment of 0.422 ratio.
With `AUUUUAUACCCCAAUAAUCAACUCGUUUUUAUAUUAAUGUACUUGUUUCUCUGUUGUAAGAAUAGGCAUUAACACAAAGGAGGCGUCUCGGGAGAGGAUUAGGUUCCAUCCUUUACGUGU` the bound/input enrichment was 11 ratio.
